Measured values of several laboratories.
Lines come from different studies, so protocols differ.

CC(=O)O[C@H]1C(=O)[C@@]2(C)[C@H]([C@H](OC(=O)c3ccccc3)[C@]3(O)C[C@H](OC(=O)[C@H](O)[C@@H](NC(=O)c4ccccc4)c4ccccc4)C(C)=C1C3(C)C)[C@]1(OC(C)=O)CO[C@@H]1C[C@@H]2O  adverse event incidence (refers to: Fatigue; patients with advanced solid tumours; intravenous, dose not given, all grades, possibly related to drug): 59%
NCCONC(=O)[C@@H]1CC[C@@H]2CN1C(=O)N2OS(=O)(=O)O  adverse event incidence (healthy Chinese men; intravenous, 2 g, treatment-related): 12.5%
O=C1CCc2ccc(OCCCCN3CCN(c4cccc(Cl)c4Cl)CC3)cc2N1  adverse event incidence (refers to: Hypotension; patients, CYP2D6 ultrarapid metabolizers; dose not given, long-acting oral or depot): 13%
FC(F)(F)c1ccc(CNc2ccc(Cc3c[nH]c4ncc(Cl)cc34)cn2)cn1  adverse event incidence (refers to: Fatigue; patients with advanced solid tumours; oral, dose not given, grade 3 and 4, possibly related to drug): 15%
CC[C@H](C)[C@H](NC(=O)[C@H](Cc1ccccc1)NC(=O)[C@H](CCC(=O)O)NC(=O)[C@H](CCCCNC(=O)COCCOCCNC(=O)COCCOCCNC(=O)CC[C@H](NC(=O)CCCCCCCCCCCCCCCCC(=O)O)C(=O)O)NC(=O)[C@H](C)NC(=O)[C@H](C)NC(=O)[C@H](CCC(N)=O)NC(=O)CNC(=O)[C@H](CCC(=O)O)NC(=O)[C@H](CC(C)C)NC(=O)[C@H](Cc1ccc(O)cc1)NC(=O)[C@H](CO)NC(=O)[C@H](CO)NC(=O)[C@@H](NC(=O)[C@H](CC(=O)O)NC(=O)[C@H](CO)NC(=O)[C@@H](NC(=O)[C@H](Cc1ccccc1)NC(=O)[C@@H](NC(=O)CNC(=O)[C@H](CCC(=O)O)NC(=O)C(C)(C)NC(=O)[C@@H](N)Cc1cnc[nH]1)[C@@H](C)O)[C@@H](C)O)C(C)C)C(=O)N[C@@H](C)C(=O)N[C@@H](Cc1c[nH]c2ccccc12)C(=O)N[C@@H](CC(C)C)C(=O)N[C@H](C(=O)N[C@@H](CCCNC(=N)N)C(=O)NCC(=O)N[C@@H](CCCNC(=N)N)C(=O)NCC(=O)O)C(C)C  adverse event incidence (refers to: Rhinorrhoea; type 2 diabetes patients; dose not given; baseline: subjects): 0%
Cc1c(Cl)c(C)[n+]([O-])c(Cl)c1-c1noc(-c2cc(O)c(O)c([N+](=O)[O-])c2)n1  adverse drug reaction incidence (refers to: Hyperhidrosis; healthy Chinese subjects; oral, 100 mg, 4 days): 0%
Cc1cc(Nc2ccc(S(F)(F)(F)(F)F)cc2)n2nc(C(C)(F)F)nc2n1  adverse event Asthenia (Plasmodium falciparum malaria patients; oral, 250 mg): 0%
Cc1c(C(=O)O)ccc2c3n(nc12)[C@@H]1[C@H](C3)N(CC2CC2)[C@@]2(C(=O)Nc3cc(Cl)ccc32)[C@H]1c1cccc(Cl)c1F  adverse event incidence (phase Ia trial, refers to: Thrombocytopenia; cancer patients; oral, dose not given, all patients all grades): 44.4%

A few entries again:
Cc1c(C(=O)O)ccc2c3n(nc12)[C@@H]1[C@H](C3)N(CC2CC2)[C@@]2(C(=O)Nc3cc(Cl)ccc32)[C@H]1c1cccc(Cl)c1F  adverse event incidence (phase Ia trial, refers to: Thrombocytopenia; cancer patients; oral, dose not given, all patients all grades): 44.4%
